{"data": "Measured values pooled from the literature", "note": "Every numbered part comes from another study and shows a few of its results, in no order. Substitutions count along the parent as printed."}
{"data": "Sample 1", "target": "CCNE1, cyclin fold, Cln2 fusion (human)", "method": "yeast growth competition, sequencing", "matrix": "yeast", "setting": "weak parent motif", "reference": "not given", "direction": "higher = stronger binding", "starting sequence": "WEE1 docking peptide (human); HKTFRKLRLFDTP"}
{"Substitution": "HKTFRKLRLVDTP [F10V]", "normalised enrichment score": -0.313}
{"Substitution": "HKTGRKLRLFDTP [F4G]", "normalised enrichment score": 1.45}
{"Substitution": "HKTFRKLRLADTP [F10A]", "normalised enrichment score": 0.739}
{"Substitution": "HKTFRKLRLFDTY [P13Y]", "normalised enrichment score": 0.553}
{"Substitution": "HKTFRVLRLFDTP [K6V]", "normalised enrichment score": 0.102}
{"Substitution": "HKTFRKLHLFDTP [R8H]", "normalised enrichment score": 0.944}
{"Substitution": "HKTFRKLRSFDTP [L9S]", "normalised enrichment score": 0.568}
{"data": "Sample 2", "target": "Interferon regulatory factor 5, full length, phosphomimetic (IRF5, Homo sapiens, UniProt Q13568-2, residues 1-514, K96S/S451D/S453D/S456D/S462D)", "method": "protein-binding microarray", "form": "double-stranded DNA, one strand shown", "matrix": "in vitro", "concentration": "250 nM", "setting": "60-bp whole probe", "added": "salmon DNA 0.4 mg/ml", "reference": "random background probes", "direction": "higher = stronger binding", "all sequences stand within": "GCCTAGCAC … GTCTTGATTCGCTTGACGCTGCTG"}
{"Strand": "TCACCTTTACATTCCCCACTGTGCTAG", "log fluorescence [z-score]": 0.666}
{"Strand": "TCATGTTTGGTCCTGAAACTGTGCTAG", "log fluorescence [z-score]": 0.297}
{"Strand": "TTACAACTGAGTCTCGATTAGTGCTAG", "log fluorescence [z-score]": 1.08}
{"Strand": "GACGAACTGACTCTCGAGACGTGCTAG", "log fluorescence [z-score]": -0.206}
{"Strand": "TTAGAACTGGGATTTCGATTAGTGCTA", "log fluorescence [z-score]": 2.49}
{"data": "Sample 3", "target": "RNA binding protein fox-1 homolog 2, RRM domain, GST-SBP tag (RBFOX2, Homo sapiens, UniProt O43251-10, residues 100-194)", "method": "RNA Bind-n-Seq", "form": "RNA", "matrix": "in vitro", "concentration": "365 nM", "setting": "natural RNA segment, single round, ends assumed", "reference": "no-protein control", "direction": "higher = stronger binding", "all sequences stand within": "GGGAGUUCUACAGUCCGACGAUC … UGGAAUUCUCGGGUGCCAA"}
{"Strand": "CAGUGUUAAUAAUAGUGUGUCAAGAUUGCAAAGUCGACAUACUCAUUUGGUUUAAGCAGGAAUCCUAGAAGCAAAUGGAUGGGGAUAAGAAUAGGUCAUUUUCUAUUCAC", "RBNS enrichment (R)": 0.45}
{"Strand": "AGUUCAAAGGAGUCUGCAAUUGGAACUGCUGAUUUUCGGUGGGUUUUGUAGUUGAUUUUUCCAAGAGCGUCGAAGACUCUCUUUCUCUUGGUUCACCUUGCCUGUCGCUA", "RBNS enrichment (R)": 0.675}
{"Strand": "ACUGUAAAUGGCUUUAGUUGUAAAGUGCAUUGUGGGCCAGCAGGCCCAGAUUUCUCUUGACACCAGAAGAUGCUGAGCAAUGGUGUCAAAGGACCAGCUCCACACUGCCC", "RBNS enrichment (R)": 0.537}
{"Strand": "GGGUCCUCAAAGAAGUAAGGCCACAGUAAUCAAGCAAGGGCCUUUGGUUUUUUCCAGAGUUAGAUCCUCUCAGAACAGAGUCUGGGAGAACUCCAAUGCUGAAUGGAGAA", "RBNS enrichment (R)": 3.91}
{"Strand": "UUUACAGAAACAUUUUUUAAAUAAGGGAAAUAUUUUAUAUACCAGAUGGUUCACAAGUGAUGGCUCAUAGCUAGUUUUUUUUUUUCUUCUAAAAAAUGUCAGGUUUUUAA", "RBNS enrichment (R)": 0.801}
{"Strand": "AAGGAAUGAACAGUAGAAUUUUAAUAGGCUGUCCAAAGAAGCCAGGUCUGCUGUGGGCAAGUAUAGCCUAACCCUAGUCUUGUAAAAUAAGCCAGAAAGGGUUACUGAGC", "RBNS enrichment (R)": 0.461}
{"Strand": "AUGCCCUGGACGGCACUCUGUUCCUUAAAGUCCAGUUCCACCCUGACGUCCACAGAGGCAGCACGGAGUGGCGAAACUCGGUUCCAGCCUGUCGUCGGCAGUGAGCGGGU", "RBNS enrichment (R)": 0.375}
{"data": "Further values, each from its own experiment"}
{"Molecule": "PhoQ, residues 284 288 289 292 302 303 ASTSDA", "target": "PhoP, residues 12 14 15 18 19 LHATL (Escherichia coli, UniProt P23836)", "assay": "Sort-seq, measured: YFP reporter", "test system": "E. coli", "conditions": "PhoQ-PhoP variant library, added: 10 µM Mg2+", "scale": "reference: high Mg2+ state, higher = stronger signaling", "measurement": "fold induction", "result": 23.6}
